Published values gathered from unrelated publications.
Protocols differ between the studies behind these lines. Several values in a cell are separate wells, animals, samples, runs or records. ± marks the error that the study gave.
Chain of UniProt Q15102 (whole entry, looked up): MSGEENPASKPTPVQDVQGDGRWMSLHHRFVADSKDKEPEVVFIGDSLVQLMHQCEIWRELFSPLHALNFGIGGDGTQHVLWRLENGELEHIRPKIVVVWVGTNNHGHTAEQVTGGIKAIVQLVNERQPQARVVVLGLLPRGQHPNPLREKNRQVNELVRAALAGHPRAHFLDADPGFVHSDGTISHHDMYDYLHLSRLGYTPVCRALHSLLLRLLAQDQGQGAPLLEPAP
Chain of UniProt Q02153 (whole entry, looked up): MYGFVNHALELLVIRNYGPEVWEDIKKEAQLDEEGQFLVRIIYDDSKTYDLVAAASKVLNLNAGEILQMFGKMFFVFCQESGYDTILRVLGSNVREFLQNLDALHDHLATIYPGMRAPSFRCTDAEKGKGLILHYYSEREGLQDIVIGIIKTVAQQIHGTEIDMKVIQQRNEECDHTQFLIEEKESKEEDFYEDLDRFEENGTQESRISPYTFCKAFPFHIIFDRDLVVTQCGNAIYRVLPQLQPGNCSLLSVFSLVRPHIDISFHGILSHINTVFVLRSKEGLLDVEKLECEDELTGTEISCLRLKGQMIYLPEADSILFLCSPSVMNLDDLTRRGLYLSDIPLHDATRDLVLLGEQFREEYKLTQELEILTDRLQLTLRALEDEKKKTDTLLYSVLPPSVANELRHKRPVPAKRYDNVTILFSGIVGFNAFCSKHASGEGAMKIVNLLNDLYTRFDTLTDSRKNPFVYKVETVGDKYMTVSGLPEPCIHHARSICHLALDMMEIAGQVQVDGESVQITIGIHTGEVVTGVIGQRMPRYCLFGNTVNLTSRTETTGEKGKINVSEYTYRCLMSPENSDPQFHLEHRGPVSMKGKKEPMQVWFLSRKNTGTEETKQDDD
Chain of UniProt O43603 (whole entry, looked up): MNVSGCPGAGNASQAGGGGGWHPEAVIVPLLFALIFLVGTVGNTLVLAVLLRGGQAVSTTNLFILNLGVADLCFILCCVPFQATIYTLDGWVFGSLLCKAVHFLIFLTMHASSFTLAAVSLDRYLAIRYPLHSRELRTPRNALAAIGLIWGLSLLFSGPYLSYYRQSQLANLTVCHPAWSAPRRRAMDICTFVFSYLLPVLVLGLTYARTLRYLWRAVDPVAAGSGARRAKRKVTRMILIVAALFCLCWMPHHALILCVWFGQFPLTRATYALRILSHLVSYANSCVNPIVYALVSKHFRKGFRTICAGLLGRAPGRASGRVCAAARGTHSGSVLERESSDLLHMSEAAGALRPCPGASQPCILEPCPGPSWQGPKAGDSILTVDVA
Chain of UniProt Q06418 (whole entry, looked up): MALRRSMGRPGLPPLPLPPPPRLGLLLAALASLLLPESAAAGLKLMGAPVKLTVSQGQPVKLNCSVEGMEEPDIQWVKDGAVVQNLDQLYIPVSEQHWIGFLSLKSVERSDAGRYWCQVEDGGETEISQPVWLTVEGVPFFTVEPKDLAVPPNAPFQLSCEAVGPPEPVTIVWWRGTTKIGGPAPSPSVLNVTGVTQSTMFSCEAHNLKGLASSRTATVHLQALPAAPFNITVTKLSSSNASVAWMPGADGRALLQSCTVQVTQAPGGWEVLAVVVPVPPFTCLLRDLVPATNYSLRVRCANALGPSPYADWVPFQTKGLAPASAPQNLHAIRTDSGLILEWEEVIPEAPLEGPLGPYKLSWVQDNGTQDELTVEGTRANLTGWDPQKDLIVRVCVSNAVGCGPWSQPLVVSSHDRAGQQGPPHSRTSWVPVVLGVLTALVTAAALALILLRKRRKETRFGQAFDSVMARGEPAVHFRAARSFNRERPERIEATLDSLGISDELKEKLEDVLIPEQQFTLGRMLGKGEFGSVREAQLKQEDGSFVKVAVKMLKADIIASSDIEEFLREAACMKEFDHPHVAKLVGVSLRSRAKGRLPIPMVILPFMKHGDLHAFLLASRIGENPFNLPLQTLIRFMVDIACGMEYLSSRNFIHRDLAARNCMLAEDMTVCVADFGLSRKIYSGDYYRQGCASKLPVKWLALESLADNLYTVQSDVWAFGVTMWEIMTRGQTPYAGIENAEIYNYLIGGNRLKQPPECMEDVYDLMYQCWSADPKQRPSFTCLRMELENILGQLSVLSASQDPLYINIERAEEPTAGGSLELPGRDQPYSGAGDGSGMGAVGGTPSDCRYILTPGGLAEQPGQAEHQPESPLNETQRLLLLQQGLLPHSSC
Chain of UniProt P28072 (whole entry, looked up): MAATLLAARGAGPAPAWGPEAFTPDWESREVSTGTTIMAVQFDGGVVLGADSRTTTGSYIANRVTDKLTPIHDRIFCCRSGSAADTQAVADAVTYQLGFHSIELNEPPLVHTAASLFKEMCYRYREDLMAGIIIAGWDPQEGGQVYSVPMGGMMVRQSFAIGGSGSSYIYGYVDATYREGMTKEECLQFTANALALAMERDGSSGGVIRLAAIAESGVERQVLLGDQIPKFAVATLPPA
Chain of UniProt Q9Y5Y4 (whole entry, looked up): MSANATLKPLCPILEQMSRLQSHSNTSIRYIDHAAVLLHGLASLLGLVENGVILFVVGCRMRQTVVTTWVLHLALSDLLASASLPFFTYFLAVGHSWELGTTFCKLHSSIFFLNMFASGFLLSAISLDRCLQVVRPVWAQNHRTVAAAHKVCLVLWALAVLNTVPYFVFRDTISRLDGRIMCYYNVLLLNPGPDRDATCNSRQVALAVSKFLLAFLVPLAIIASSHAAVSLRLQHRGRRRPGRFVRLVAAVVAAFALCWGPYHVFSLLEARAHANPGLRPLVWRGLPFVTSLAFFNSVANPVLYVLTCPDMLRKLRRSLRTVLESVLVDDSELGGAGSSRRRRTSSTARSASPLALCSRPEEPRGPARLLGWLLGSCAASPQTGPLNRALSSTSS
Chain of UniProt P00942 (whole entry, unmodified, looked up): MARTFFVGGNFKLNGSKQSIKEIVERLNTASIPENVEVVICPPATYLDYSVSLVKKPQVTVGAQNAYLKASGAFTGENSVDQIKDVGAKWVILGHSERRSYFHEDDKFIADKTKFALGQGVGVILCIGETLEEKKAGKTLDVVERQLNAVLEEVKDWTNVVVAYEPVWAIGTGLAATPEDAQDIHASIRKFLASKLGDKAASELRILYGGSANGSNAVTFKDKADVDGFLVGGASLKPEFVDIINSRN
Chain of UniProt Q9UJZ1 (whole entry, looked up): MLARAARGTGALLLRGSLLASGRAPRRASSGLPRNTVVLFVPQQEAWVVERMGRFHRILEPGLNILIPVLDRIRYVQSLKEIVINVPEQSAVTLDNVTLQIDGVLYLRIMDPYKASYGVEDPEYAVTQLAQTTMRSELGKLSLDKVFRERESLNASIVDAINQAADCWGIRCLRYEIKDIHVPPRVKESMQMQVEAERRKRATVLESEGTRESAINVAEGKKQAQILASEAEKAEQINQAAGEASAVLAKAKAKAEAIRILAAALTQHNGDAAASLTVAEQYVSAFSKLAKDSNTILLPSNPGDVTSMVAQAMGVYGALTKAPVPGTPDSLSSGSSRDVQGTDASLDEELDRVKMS
Chain of UniProt P21917 (whole entry, looked up): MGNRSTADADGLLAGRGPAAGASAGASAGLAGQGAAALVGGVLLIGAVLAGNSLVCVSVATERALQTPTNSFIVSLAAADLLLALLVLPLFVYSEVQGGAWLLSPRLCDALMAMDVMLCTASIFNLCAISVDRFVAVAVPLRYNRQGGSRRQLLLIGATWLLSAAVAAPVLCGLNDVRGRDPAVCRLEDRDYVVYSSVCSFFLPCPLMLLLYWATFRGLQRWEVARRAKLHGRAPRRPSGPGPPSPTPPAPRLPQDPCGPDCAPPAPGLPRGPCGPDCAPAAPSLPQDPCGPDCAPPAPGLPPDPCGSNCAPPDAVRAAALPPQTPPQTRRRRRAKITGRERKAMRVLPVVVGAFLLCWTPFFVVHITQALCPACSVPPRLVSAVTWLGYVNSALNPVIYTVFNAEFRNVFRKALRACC
Chain of UniProt O42275 (whole entry, looked up): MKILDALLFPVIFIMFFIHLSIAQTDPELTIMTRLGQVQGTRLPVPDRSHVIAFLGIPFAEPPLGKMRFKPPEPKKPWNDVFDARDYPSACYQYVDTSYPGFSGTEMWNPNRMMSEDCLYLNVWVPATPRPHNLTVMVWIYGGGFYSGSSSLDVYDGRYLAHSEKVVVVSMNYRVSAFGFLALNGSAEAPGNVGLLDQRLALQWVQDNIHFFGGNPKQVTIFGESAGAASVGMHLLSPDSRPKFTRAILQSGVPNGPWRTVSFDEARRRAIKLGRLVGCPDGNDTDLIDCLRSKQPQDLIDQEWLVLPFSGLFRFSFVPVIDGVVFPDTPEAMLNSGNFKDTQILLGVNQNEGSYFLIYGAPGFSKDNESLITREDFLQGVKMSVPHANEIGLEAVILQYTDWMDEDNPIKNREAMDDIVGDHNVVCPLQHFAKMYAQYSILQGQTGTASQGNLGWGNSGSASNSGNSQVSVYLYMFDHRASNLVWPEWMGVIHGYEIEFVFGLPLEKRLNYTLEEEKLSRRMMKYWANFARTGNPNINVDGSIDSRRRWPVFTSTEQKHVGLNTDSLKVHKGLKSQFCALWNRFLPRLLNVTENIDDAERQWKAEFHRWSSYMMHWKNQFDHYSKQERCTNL
Chain of UniProt P48146 (whole entry, looked up): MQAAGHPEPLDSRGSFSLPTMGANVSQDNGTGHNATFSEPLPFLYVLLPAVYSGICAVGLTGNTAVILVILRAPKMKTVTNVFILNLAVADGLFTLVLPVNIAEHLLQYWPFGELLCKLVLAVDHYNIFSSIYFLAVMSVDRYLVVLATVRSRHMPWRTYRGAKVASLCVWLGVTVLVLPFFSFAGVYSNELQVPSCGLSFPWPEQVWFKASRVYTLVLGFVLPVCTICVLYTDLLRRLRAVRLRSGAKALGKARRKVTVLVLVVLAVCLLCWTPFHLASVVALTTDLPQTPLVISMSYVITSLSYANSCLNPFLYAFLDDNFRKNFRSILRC

| SMILES | target or system | assay | test system | conditions | how to read | measurement | value |
| --- | --- | --- | --- | --- | --- | --- | --- |
| Cc1onc(-c2c(Cl)cccc2Cl)c1C(=O)N[C@@H]1C(=O)N2[C@@H]1SC(C)(C)[C@@H]2C(=O)O | Penicillin-binding protein 2X (Streptococcus pneumoniae R6, UniProt P59676) | inhibitor | Streptococcus pneumoniae |  |  | kinact/KI | 38000 ± 5200 M⁻¹ s⁻¹ |
| C[C@@H](O)[C@H](NC(=O)[C@@H]1CSSC[C@H](NC(=O)[C@@H](Cc2ccccc2)NC(=O)CN2CCN(CC(=O)[O-])CCN(CC(=O)[O-])CCN(CC(=O)[O-])CC2)C(=O)N[C@@H](Cc2ccc(O)cc2)C(=O)N[C@H](Cc2c[nH]c3ccccc23)C(=O)N[C@@H](CCCCN)C(=O)N[C@@H]([C@@H](C)O)C(=O)N1)C(=O)O.[177Lu+3] | MEC1 | gamma counter |  | 240 min efflux after 2 h loading |  | retention | 24.7% |
| COc1cc(N)c(Cl)cc1C(=O)NC1CN2CCC1CC2 (stereo not shown) | NPBWR2 (Homo sapiens, UniProt P48146) | receptor activation, TANGO luminescence |  | concentration not given, unconfirmed screen | reference: vehicle control | log2 fold change | 0.146 |
| C[C@@H](O)[C@@H](CO)NC(=O)[C@@H](CCCNC(=N)N)NC(=O)[C@@H]1CCCN1C(=O)[C@@H]1CSSC[C@H](NC(=O)[C@H](Cc2ccccc2)NC(=O)CN2CCN(CC(=O)O)CCN(CC(=O)O)CCN(CC(=O)O)CC2)C(=O)N[C@@H](Cc2ccc(O)cc2)C(=O)N[C@@H](Cc2ccccc2)C(=O)N[C@@H](CCC(N)=O)C(=O)N[C@@H](CC(N)=O)C(=O)N1 [gallium-68 labelled] |  |  | Wistar rat, kidneys | intravenous, 8 MBq, 60 min, group mean |  | tissue uptake | 2.95 %ID/g |
| COC(=O)[C@@]1(O)C[C@H]2O[C@]1(C)n1c3ccccc3c3c4c(c5c6ccccc6n2c5c31)C(=O)NC4 | MAPK3 (Homo sapiens, UniProt P27361) | ADP-Glo |  | 2.04 µM, with: substrate MBP |  | remaining activity | 108% |
| [2H]c1c([2H])c([C@]2([2H])CCCN2C(=O)C(C)(C)Oc2ccc3cn[nH]c3c2)c([2H])c([2H])c1C([2H])([2H])[2H] | CSNK1G2 (Homo sapiens, UniProt P78368) | KINOMEscan |  | 1 µM | reference: DMSO control | remaining binding | 64% |
| O=C(c1ccc(Cl)cc1)N1CCN2C(=O)N(OC(=O)N3CCOc4ccccc43)C(=O)C2C1 (stereo not shown) | Platelet-activating factor acetylhydrolase IB subunit alpha1 (Homo sapiens, UniProt Q15102) | MS-based ABPP | SW-620 conditioned medium | 10 µM, 1 h, 37 °C | reference: compound over DMSO, lower = more inhibition | peptide ratio | 0.9 and 0.79 and 0.74 and 0.81 and 0.93 and 0.95 and 0.77 |
| COc1cc(Nc2ncc(F)c(Nc3ccc4c(n3)NC(=O)C(C)(C)O4)n2)cc(OC)c1OC | PTGDR2 (Homo sapiens, UniProt Q9Y5Y4) |  |  |  |  | IC50 | > 10000 nM |
| CCN(CC)CCCC[C@H](NC(=O)[C@H](CC(C)C)NC(=O)[C@H](C)NC(=O)[C@H](Cc1ccccc1)NC(=O)c1ccc(C(C)(C)C)cc1)C(=O)N[C@@H](CO)C(=O)OC | GALR2 (Homo sapiens, UniProt O43603) | radioligand binding |  | 10 µM |  | specific binding | 121% |
| O=c1onc2cnc3ccccc3n12 | GUCY1B1, with alpha-1 subunit (Homo sapiens, UniProt Q02153) |  | human cells | concentration not given, basal conditions |  | cGMP level | no effect |
| C[C@H]1CN(c2n[nH]c3nc(N[C@H]4CC[C@H](NS(=O)(=O)CCC(F)(F)F)CC4)ncc23)CCO1 | Stomatin-like protein 2, mitochondrial (Homo sapiens, UniProt Q9UJZ1) | Kinobeads competition, refers to: STOML2 |  | 0.032 µM, unit not given | reference: vehicle | remaining binding | 1.06 |
| Oc1ccc(/C=C/c2cc(O)cc(O)c2)cc1 | O-methyltransferase (Sorghum bicolor, UniProt A0A1B6PFV1, W279A) | isothermal titration calorimetry |  | with: SFG |  | -T∆S | 0.388 kcal/mol |
| CC12CCC(CC1)C(C)(C)O2 | 1,8-cineole 2-endo-monooxygenase (cinA, Citrobacter braakii, UniProt Q8VQF6, N242A) | ITC |  | 25 °C, N242A enzyme variant |  | ΔH | 1.22 ± 0.02 kcal/mol |
| O=c1oc(-c2ccccc2)ns1 | PSMB6 (Homo sapiens, UniProt P28072) | enzyme inactivation, inhibitor | human PA28-activated proteasome |  |  | kobs/[I] | 0.95 M⁻¹ s⁻¹ |
| CCCC[C@H]1CN(c2cccc(OC(F)(F)F)c2)C(=O)CN1Cc1cncn1Cc1ccc(C#N)c(F)c1 | Protein farnesyltransferase (Cryptococcus neoformans, UniProt J9VSJ6+T2BPA1) | uncompetitive inhibitor |  | with: 10 mM phosphate |  | Ki | 4 nM |
| COc1cc2nccc(Oc3ccc(NC(=O)c4cc5c(n(-c6ccccc6)c4=O)CCCC5=O)nc3)c2cc1OC | TYRO3 (Homo sapiens, UniProt Q06418) | cell viability, CellTiter-Glo | Ba/F3 expressing recombinant kinase |  | reference: TYRO3 IC50 over AXL IC50 | selectivity ratio | 12 |
| COc1ccc(Nc2nn3c(-c4ccccc4)ccnc3c2C(=O)Nc2ccc(Cl)cc2)cc1 | α-glucosidase | SDS-PAGE densitometry, refers to: 45 kDa band |  | 1 mg/mL | reference: untreated enzyme, lower = more denaturation | band quantity | 0.76 a.u. |

| SMILES | target or system | assay | test system | conditions | how to read | measurement | value |
| --- | --- | --- | --- | --- | --- | --- | --- |
| C#CCCCCNC(=O)CI | Cytoskeleton-associated protein 4 (Homo sapiens, UniProt Q07065) | mass spectrometry profiling | H460 cell lysate | 100 µM over 10 µM, UniProt Q07065 | reference: high over low concentration | reactivity ratio | 1.66 |
| CN1CCN(c2cc(-c3ccncc3)c(-c3ccc4ccccc4c3)nn2)CC1 | DRD4 (Homo sapiens, UniProt P21917) | antagonist, FLIPR |  | 10 µM |  | inhibition | 8.2% |
| COc1cc2c(Oc3ccc4[nH]c(C)cc4c3F)ccnc2cc1OCC1(N)CC1 |  | refers to: grade 1 or 2 abdominal pain | paediatric high-risk refractory sarcoma | whole group |  | incidence of adverse event | 35.3% |
| O=C(O)C[C@H](NC(=O)[C@H](CC(=O)O)NC(=O)[C@H](CC(=O)O)NC(=O)[C@H](CC(=O)O)NC(=O)[C@H](CC(=O)O)NC(=O)[C@H](CC(=O)O)NC(=O)[C@H](CC(=O)O)NC(=O)[C@H](CC(=O)O)NC(=O)[C@H](CC(=O)O)NC(=O)[C@H](CC(=O)O)NC(=O)[C@H](CC(=O)O)NC(=O)[C@H](CCCCNC(=O)c1ccc(C(=O)NCCOCCOB2BBBBBB3BBBB3B2)cc1)NC(=O)CN1CCN(CC(=O)O)CCN(CC(=O)O)CCN(CC(=O)O)CC1)C(=O)O [gallium-67 labelled] |  | gamma counting | ddY mouse, male, 6 weeks old, pancreas | intravenous, 37 kBq, 10 min |  | tissue uptake | 1.36 %ID/g |
| Nc1ncc(-c2nc(N3CCOCC3)nc(N3CCOCC3)n2)c(C(F)F)n1 | MAP3K1 (Homo sapiens, UniProt Q13233) | KINOMEscan |  | 10 µM |  | remaining binding | 77% |
| CC[C@H](C)[C@H](NC(=O)[C@H](Cc1ccccc1)NC(=O)[C@H](CCC(=O)O)NC(=O)[C@H](CCCNC(=N)N)NC(=O)[C@H](C)NC(=O)[C@H](C)NC(=O)[C@H](CCC(N)=O)NC(=O)[C@H](CCC(=O)O)NC(=O)[C@H](CCC(=O)O)NC(=O)[C@H](CC(C)C)NC(=O)[C@H](Cc1ccc(O)cc1)NC(=O)[C@H](CO)NC(=O)[C@H](CO)NC(=O)[C@@H](NC(=O)[C@H](CC(=O)O)NC(=O)[C@H](CO)NC(=O)[C@@H](NC(=O)[C@H](Cc1ccccc1)NC(=O)[C@@H](NC(=O)CNC(=O)[C@H](CCC(=O)O)NC(=O)[C@H](C)NC(=O)CCc1c[nH]cn1)[C@@H](C)O)[C@@H](C)O)C(C)C)C(=O)N[C@@H](C)C(=O)N[C@@H](Cc1c[nH]c2ccccc12)C(=O)N[C@@H](CC(C)C)C(=O)N[C@H](C(=O)N[C@@H](CCCNC(=N)N)C(=O)NCC(=O)N[C@@H](CCCNC(=N)N)C(=O)N[C@@H](CCCCNC(=O)COCCOCCNC(=O)COCCOCCNC(=O)CC[C@H](NC(=O)CCCCCCCCCCCCCCCCC(=O)O)C(=O)O)C(=O)NCC(=O)NCC(=O)N[C@@H](CO)C(=O)N[C@@H](CCCCNc1c(NCCCCCN(O)C(=O)CCC(=O)NCCCCCN(O)C(=O)CCC(=O)NCCCCCN(O)C(C)=O)c(=O)c1=O)C(=O)O)C(C)C [zirconium-89 labelled] |  | ex vivo gamma counting | rat, duodenum content | subcutaneous, 3 nmol/kg, 24 h, with: [89Zr]-labelled peptide |  | tissue uptake | 0.08 %ID/g |
| CC(C)[C@@H](O)CC[C@@H](C)[C@H]1CC[C@H]2[C@@H]3CC=C4C[C@@H](O)CC[C@]4(C)[C@H]3CC[C@]12C | Glutamate NMDA receptor; GRIN1/GRIN2B (GRIN1/GRIN2B, Homo sapiens, UniProt Q05586+Q13224, R755A) | ion current, positive allosteric modulator, two-electrode voltage clamp | Xenopus oocytes | 10 µM, GluN1-R755A mutant, with: 100 µM glutamate and glycine | reference: absence of compound | current potentiation | 156 ± 5.8% |
| CCCCCCCCCCCC(=O)N[C@H]1CCOC1=O | qscR, DNA-bound (Pseudomonas aeruginosa, UniProt G3XD77) | DNA binding, ligand, EMSA |  | saturating ligand |  | Hill slope | 1.5 |
| CO[C@H]1C[C@@H]2CC[C@@H](C)[C@@](O)(O2)C(=O)C(=O)N2CCCC[C@H]2C(=O)O[C@H]([C@H](C)C[C@@H]2CC[C@@H](OC(=O)NCCOCCOCCOCCOCCOCCOCCOCCOCCC(=O)N3CCc4cc(Cn5nc(-c6ccc7oc(N)nc7c6)c6c(N)ncnc65)ccc4C3)[C@H](OC)C2)C[C@@H](O)[C@H](C)/C=C(\C)[C@@H](O)[C@@H](OC)C(=O)[C@H](C)C[C@H](C)/C=C/C=C/C=C/1C |  |  | patients with advanced solid tumours | intravenous, 1.6 mg/3 mg weekly, any grade |  | incidence of Nausea TEAE | 20% |
| CC[C@H](C)[C@@H]1NC(=O)[C@@H]2CCCN2C(=O)[C@H](CC(C)C)NC(=O)[C@H](CC(C)C)NC(=O)CNC(=O)[C@@H](NC(=O)[C@@H](NC(=O)[C@H](CC(=O)O)NC(=O)CNC(=O)[C@@H](NC(=O)[C@H](C)NC(=O)CNC(=O)[C@H](CCCCN)NC(=O)[C@H](CC(C)C)NC(=O)[C@H](CC(C)C)NC(=O)[C@H](CCCCN)NC(=O)CNC(=O)[C@@H](NC(=O)[C@@H](N)CC(C)C)C(C)C)C(C)C)C(C)C)CSSC[C@@H](C(=O)O)NC1=O |  | RNA-seq, refers to: Fam20c | mouse, traumatic brain injury model, frontal cortex and hippocampus | dose not given | reference: TBI alone | log2 fold change | -0.935 |
| CN[C@@H]1C[C@H]2O[C@@](C)([C@@H]1OC)n1c3ccccc3c3c4c(c5c6ccccc6n2c5c31)C(=O)NC4 | CDC2-like kinase 1 (Trypanosoma brucei brucei, UniProt Q382U0) | kinase activity, ADP-Glo |  | 0.1562 µM |  | remaining activity | 42.6% |
| Cc1cc(N2CCNCC2)nc2ccccc12 | CHRM2 (Homo sapiens, UniProt P08172) | ERK1/2 phosphorylation, agonist | CHO cells |  |  | Emax | < 10% |
| COc1ccc(N2C(=O)N(c3c(C)cccc3Cl)Cc3cnc(Nc4ccc(C5CCN(C)CC5)cc4OC)nc32)nc1 | SYK (Homo sapiens, UniProt P43405) | kinase activity |  | 0.5 µM |  | inhibition | -2.39% |
| O=c1c2ccccc2oc2cc(OCCCCc3ccccc3)ccc12 | ache (Electrophorus electricus, UniProt O42275) | enzyme activity, inhibitor, Lineweaver-Burk plot |  | 2.91 µM | higher = faster reaction | Vmax | 0.0038 a.u. |
| Nc1ncnc2c1ncn2[C@@H]1O[C@@H]2COP(=O)(O)O[C@@H]3[C@H](O)[C@@H](COP(=O)(O)O[C@H]2[C@H]1O)O[C@H]3n1cnc2c(N)ncnc21 | CBASS effector Cap5 (Pseudomonas syringae, UniProt A0A2P0QGK5) | plasmid DNA cleavage, agarose gel |  | 20 min, with: plasmid DNA 50 nM |  | lowest concentration for DNA cleavage | ~1 µM |
| O=C[C@H](O)COP(=O)(O)O | TPI1 (Saccharomyces cerevisiae, UniProt P00942, Y208S) | substrate, GPDH/NADH-coupled |  | pH 4.9, 25 °C |  | Km | ~21 mM |
| CN(C(=O)n1cnc(-c2ccc[n+]([O-])c2)c1)C1CCCCC1 | Alpha-2-HS-glycoprotein (Ahsg, Rattus norvegicus, UniProt P24090) | competitive ABPP with azido-FP probe | rat brain soluble fraction | 100 µM, unit not given | reference: DMSO | probe labelling | -1.1 |

Some of these lines once more:
| SMILES | target or system | assay | test system | conditions | how to read | measurement | value |
| --- | --- | --- | --- | --- | --- | --- | --- |
| CN1CCN(c2cc(-c3ccncc3)c(-c3ccc4ccccc4c3)nn2)CC1 | DRD4 (Homo sapiens, UniProt P21917) | antagonist, FLIPR |  | 10 µM |  | inhibition | 8.2% |
| COc1cc2c(Oc3ccc4[nH]c(C)cc4c3F)ccnc2cc1OCC1(N)CC1 |  | refers to: grade 1 or 2 abdominal pain | paediatric high-risk refractory sarcoma | whole group |  | incidence of adverse event | 35.3% |
